Measured values of several laboratories.
A part holds a random share of what one study measured. Positions count from the first letter of the parent shown.

Block 1 — technique: DHFR PCA, dose-response; matrix: yeast; setting: Hill fit, mean, not affinity; with: (+)-ABA, dose series; reading: lower = more sensitive
Target: ABI1, truncated, D143A, DHFR fusion (Arabidopsis thaliana, UniProt P49597)
Parent: PYL1, truncated, DHFR fusion (Arabidopsis thaliana, UniProt Q8VZS8); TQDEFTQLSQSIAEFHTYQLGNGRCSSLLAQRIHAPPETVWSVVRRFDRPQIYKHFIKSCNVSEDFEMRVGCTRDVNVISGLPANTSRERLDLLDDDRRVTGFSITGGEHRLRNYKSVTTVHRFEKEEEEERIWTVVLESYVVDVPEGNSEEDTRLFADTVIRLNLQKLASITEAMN
| Variant | ABA EC50 |
| --- | --- |
| L20N | 4.22 µM |
| R24H | 10.8 µM |
| S171A | 1.53 µM |
| K168H | 1.58 µM |
| V137C | 72.8 µM |
| T86Q | 13 µM |
| H122C | 95.7 µM |
| E130W | 11.9 µM |
| S171M | 2.67 µM |
| E125W | 3.12 µM |
| P50I | 667 µM |
| L156R | 21.1 µM |
| Q7W | 1.63 µM |
| T160S | 19 µM |
| T101A | 13.5 µM |
| D3Q | 7.4 µM |

Block 2 — technique: RNA Bind-n-Seq; form: RNA; matrix: in vitro; concentration: 200 nM; setting: whole 134-nt RNA, ends assumed; with: 150 mM LiCl; baseline: input library; reading: higher = stronger binding; library: 7-deaza-guanosine replaces G
Target: Fragile X messenger ribonucleoprotein 1, C-terminal low-complexity region (Fmr1, Mus musculus, UniProt P35922)
| Strand | log2 enrichment |
| --- | --- |
| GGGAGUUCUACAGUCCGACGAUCUGUGCUACACAUCGUAUGUACCGAAUCGGGGUUUUUGGGGAAAAAAAGGGGAAAAAAAGGGGAAAGUAUUAUGUUACGCCGUUCGGAUCUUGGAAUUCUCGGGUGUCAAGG | -0.298 |
| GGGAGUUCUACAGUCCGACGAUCAGUCCUGUGCUACACAUCGUAUGUACCGAAUCGGGAAAAAGGGUUUUUUUGGGAGGGAAAGUAUUAUGUUACGCCGUUCGGAUCUGCACUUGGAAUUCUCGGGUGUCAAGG | -1.99 |
| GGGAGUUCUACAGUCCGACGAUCCAAGUCCUGUGCUACACAUCGUAUGUACCGAAUCGGAAAGGUUUUUUUGGUUUGGAAAGUAUUAUGUUACGCCGUUCGGAUCUGCACUUCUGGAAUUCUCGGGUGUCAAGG | -2.99 |
| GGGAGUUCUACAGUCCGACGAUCUGGAGAAGGAACGUGAUAAAGAAGUAAGCGAUGAUGAGGCUGAAGAAAAGGAAGACAAAGAAGAAGAAAAAGAAAAAGAAGAGAAAGAGUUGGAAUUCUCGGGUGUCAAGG | 1.11 |
| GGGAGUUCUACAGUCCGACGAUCCAAGUCCUGUGCUACACAUCGUAUGUACCGAAUCGGGGUUUGGGGAGGGGUGGGGAAAGUAUUAUGUUACGCCGUUCGGAUCUGCACUUCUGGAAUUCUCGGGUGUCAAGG | -0.364 |
| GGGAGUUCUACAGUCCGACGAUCUUAAAGAAAUGUCCACAAGUAACUUUGAAUCAUCUCCUGAAGUAGAAGAAAGGCCUGCUGUGUCUUUGACUCUUGAUCAGAGCCAGUCACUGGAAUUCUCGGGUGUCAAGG | -1.18 |
| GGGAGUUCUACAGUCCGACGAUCGCAGGAAGUAAAAACAAAUGGAAAUGCUUCGGAUAGUGGCAGGGGUGGGGGUUGCUAAGGAAAGGGUGGGAUGGGACUGGGUAAAGAGUUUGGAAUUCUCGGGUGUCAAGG | 1.22 |
| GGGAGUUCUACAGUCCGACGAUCACCAUGCAGGUGGGCAUCUUUGGGAAGUGGGGCAAGGGGGGGAUAGGGAGGGGGGUGACACUUUGGGAACAGGUGGUCCCAGGUCGUUUCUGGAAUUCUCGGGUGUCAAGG | 1.41 |
| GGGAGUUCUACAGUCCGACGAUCUGUACUGAUGACAGCUAAUCUCUGAAUCUUUUUCCUCCAGGAUGUUCCUUCAGGAGGAAGCAGCACUAAAAGCACUCUGAGUCAAGAUGAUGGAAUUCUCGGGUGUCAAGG | 0.216 |
| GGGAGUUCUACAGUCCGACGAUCCACAGACAACACGCACCCACACAGACACAGAGGGAAGGGGUUGAGAUGGGGACAGGGUGCACAGCAGGGCGGGGUAGGACCCCAGCCCCUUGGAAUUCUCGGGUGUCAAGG | -0.505 |
| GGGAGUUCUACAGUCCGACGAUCCAAGUCCUGUGCUACACAUCGUAUGUACCGAAUCGGUUUUUGGAAAGGUUUUUGGAAAGUAUUAUGUUACGCCGUUCGGAUCUGCACUUCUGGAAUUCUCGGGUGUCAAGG | -1.94 |

Block 3 — technique: protein-binding microarray; form: double-stranded DNA, one strand shown; matrix: in vitro; concentration: 2540 nM top; setting: 60-bp whole probe; with: salmon DNA 0.4 mg/ml; baseline: random background probes; reading: higher = stronger binding; all sequences stand within: GCCTAGCAC … GTCTTGATTCGCTTGACGCTGCTG
Target: Interferon regulatory factor 3, full length, phosphomimetic (IRF3, Homo sapiens, UniProt Q14653, residues 1-427, S386D/S396D/S398D/S402D/T404D/S405D)
Target sequence (chain): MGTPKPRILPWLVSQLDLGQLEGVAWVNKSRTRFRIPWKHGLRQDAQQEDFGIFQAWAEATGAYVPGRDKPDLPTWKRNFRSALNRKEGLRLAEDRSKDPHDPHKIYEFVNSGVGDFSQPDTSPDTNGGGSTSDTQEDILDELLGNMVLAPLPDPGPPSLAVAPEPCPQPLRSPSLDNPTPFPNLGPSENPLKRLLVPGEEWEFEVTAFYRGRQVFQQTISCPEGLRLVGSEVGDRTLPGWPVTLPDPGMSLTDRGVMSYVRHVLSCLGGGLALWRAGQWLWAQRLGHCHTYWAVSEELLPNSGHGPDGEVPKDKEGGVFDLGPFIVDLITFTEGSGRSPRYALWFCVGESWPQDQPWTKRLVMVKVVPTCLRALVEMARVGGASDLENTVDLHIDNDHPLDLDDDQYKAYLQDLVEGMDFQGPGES
| Strand | fitted relative affinity |
| --- | --- |
| GACGAACTGAGTATCGAAACGTGCTAG | 0.633 z-score |
| TTAGGTCTCGGTCTCGCTTAGTGCTAG | 0.78 z-score |
| TTAGATTTGGGGACTGGATTAGTGCTA | -0.541 z-score |
| TTAGGTATCGACTTTCGGTAAGTGCTA | 1.48 z-score |
| TCACTTTCCTTTATGTCACTGTGCTAG | 7.98 z-score |
| TTAGATTTCGGTATCGATTAGTGCTAG | 4.94 z-score |
| TCATTTATGCTTTCTTTAACTGTGCTA | 1.7 z-score |
| TCAACTCTGTTTTCGCTTACTGTGCTA | 1.37 z-score |
| TGCCATATTTATCTGCAAAGGTGCTAG | 0.121 z-score |
| GACGGTATCCGTCTCGGGACGTGCTAG | 4.7 z-score |
| AGGATCCAGCCTGCAACCTCGTGCTAG | 0.552 z-score |
| TTAGATATCTTTTTCCTAATGTGCTAG | 2.17 z-score |
| TCATCTTTATGCACTCTCACTGTGCTA | 0.898 z-score |
| AATTTTGTCATCTATAATGGAGTGCTA | 0.761 z-score |
| TTAGGGTTCGGGTTTCGGTTAGTGCTA | 3.11 z-score |
| TATTGTGTCAACTTTCTCTGCGTGCTA | 0.843 z-score |
| TTACGTTCCCTTTTCCTTTAGTGCTAG | 6.25 z-score |
| GACGGTTTGGACACTGGGGACGTGCTA | -0.123 z-score |
| GAGGATATCAGTCTCGAGACGTGCTAG | 0.561 z-score |
| TTAGATATCAATCTCGATTAGTGCTAG | 0.808 z-score |
| GACGGTTTCGACACTGGGGATGTGCTA | 3.24 z-score |
| ATGGAAATGCACCCCACGCTGTGCTAG | -0.157 z-score |
| TCAAGCCTCTGTTTTGAACTGTGCTAG | -0.402 z-score |
| TTAGGTTTCCTTATCCTTTAGTGCTAG | 8.23 z-score |
| TACGGTATCGGTCTCGGGACGTGCTAG | 4.33 z-score |

Block 4 — target: CCNE1, cyclin fold, Cln2 fusion (human); technique: yeast growth competition, sequencing; matrix: yeast; setting: weak parent motif; baseline: not given; reading: higher = stronger binding
Parent: SLBP docking peptide (human); ARYKRKLLINDFG
| Variant | normalised enrichment score |
| --- | --- |
| ARYKYKLLINDFG [R5Y] | -0.0393 |
| ARYHRKLLINDFG [K4H] | 1.16 |
| ARYKRKLLINDFR [G13R] | -0.0701 |
| AFYKRKLLINDFG [R2F] | 0.674 |
| ARYKRKLLLNDFG [I9L] | 0.79 |
| AMYKRKLLINDFG [R2M] | 0.379 |
| ARYKRKLLYNDFG [I9Y] | 1.37 |
| ARYKRKLLINDFH [G13H] | 0.429 |
| ARYKRGLLINDFG [K6G] | 0.733 |
| ARYKRKLLINDHG [F12H] | 0.0467 |
| FRYKRKLLINDFG [A1F] | -0.101 |
| ARYDRKLLINDFG [K4D] | -0.127 |
| ARYKRKLLMNDFG [I9M] | 0.615 |
| ARYKRKLLDNDFG [I9D] | 0.0106 |
| ARYKRKLLINDFV [G13V] | 1.57 |
| ARYKRKLLIMDFG [N10M] | 0.544 |
| ARYKRKLLINHFG [D11H] | 0.459 |
| ARYKKKLFINDFG [R5K L8F] | 0.531 |
| ARYWRKLLINDFG [K4W] | 1.95 |
| AHYKRKLLINDFG [R2H] | 0.669 |
| ARYKRKLAINDFG [L8A] | 0.438 |
| AAYKRKLLINDFG [R2A] | -0.000424 |
| ARYKRKLLINDFK [G13K] | 0.999 |
| CRYKRKLLINDFG [A1C] | 0.41 |
| ARYSRKLLINDFG [K4S] | -0.0938 |

Block 5 — technique: protein binding microarray; form: double-stranded DNA, one strand shown; matrix: in vitro; concentration: not given; baseline: not given; reading: higher = stronger binding
Target: Histone acetyltransferase KAT6A, winged helix 1, GST fusion (KAT6A, Homo sapiens, UniProt Q92794, residues 1-85)
Setting: 8-mer, flanks averaged, mean of 2 arrays, mostly near background
Target sequence (chain): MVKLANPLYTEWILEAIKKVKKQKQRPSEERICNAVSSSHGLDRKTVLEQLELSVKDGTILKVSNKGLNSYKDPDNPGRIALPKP
| Strand | E-score |
| --- | --- |
| AATACGTA | 0.0223 |
| ACTCAGGA | -0.109 |
| GCAGGAAC | -0.144 |
| CGCCACTC | 0.165 |
| CCGAGCCA | 0.049 |
| GAGTGGAC | -0.0888 |
| TCTTGACA | -0.174 |
| AACTACAA | -0.108 |
| AACGTCAC | -0.112 |
| ATGGTTAA | -0.0604 |
| AACGCGTG | 0.348 |
| AGGTTCAT | -0.145 |
| AACCCGTA | 0.36 |
| AACAGCCT | -0.00053 |
| TAAAGGGA | -0.00936 |
| AGGGAAAA | -0.0784 |
| ACAAGTCG | -0.145 |
| CATTGTTC | -0.0551 |
| CTCCCTCC | -0.173 |
| GATCCATC | -0.0828 |
| ACCTGGCT | -0.253 |
| CCACCCTA | -0.265 |
| GCTAAGGA | -0.0169 |
| CCATCTAA | -0.118 |

A few entries again (block 3):
| Strand | fitted relative affinity |
| --- | --- |
| GAGGATATCAGTCTCGAGACGTGCTAG | 0.561 z-score |
| TTAGATTTGGGGACTGGATTAGTGCTA | -0.541 z-score |
| TTAGGTCTCGGTCTCGCTTAGTGCTAG | 0.78 z-score |
| TACGGTATCGGTCTCGGGACGTGCTAG | 4.33 z-score |
| AGGATCCAGCCTGCAACCTCGTGCTAG | 0.552 z-score |
| TGCCATATTTATCTGCAAAGGTGCTAG | 0.121 z-score |
| TCAAGCCTCTGTTTTGAACTGTGCTAG | -0.402 z-score |
| GACGAACTGAGTATCGAAACGTGCTAG | 0.633 z-score |
| GACGGTATCCGTCTCGGGACGTGCTAG | 4.7 z-score |
| TCACTTTCCTTTATGTCACTGTGCTAG | 7.98 z-score |
| TATTGTGTCAACTTTCTCTGCGTGCTA | 0.843 z-score |
| TTAGGTTTCCTTATCCTTTAGTGCTAG | 8.23 z-score |
| TCATTTATGCTTTCTTTAACTGTGCTA | 1.7 z-score |
| TCAACTCTGTTTTCGCTTACTGTGCTA | 1.37 z-score |
| TTACGTTCCCTTTTCCTTTAGTGCTAG | 6.25 z-score |
